Published values gathered from unrelated publications.
Compare with care: the assays were run in different laboratories.
Target: Lysine-specific histone demethylase 1A (KDM1A, Homo sapiens, UniProt O60341)

SMILES | test | measurement | result
CCCSc1nc(Sc2nnnn2C)c2ncn(Cc3ccccc3)c2n1 | enzyme activity, inhibitor, fluorescence | IC50 | > 10 µM
COc1ccccc1Nc1nc(SCc2cn(CC(=O)NC(=O)Nc3ccccn3)nn2)nc(-c2ccc(C(C)C)cc2)c1C#N | enzyme activity, inhibitor, fluorescence | IC50 | > 10 µM
NCCCCN(CCCN)CCCN | enzyme activity, inhibitor, absorbance | Ki | > 50 µM
COc1cc(-c2nc(SCc3cn(CC(=O)NC(=O)Nc4ccccn4)nn3)nc(Nc3cccc(C(F)(F)F)c3)c2C#N)cc(OC)c1OC | enzyme activity, inhibitor, fluorescence | IC50 | 0.387 µM
CCCSc1nc(Sc2nnnn2C)c2nnn(CCCN3CCOCC3)c2n1 | enzyme activity, inhibitor, fluorescence | IC50 | 2.09 µM
COc1ccc(CCCN[C@H]2CCC[C@@H]2CN[C@@H]2CCC[C@H]2CNCCCCN[C@@H]2CCC[C@H]2CN)cc1 | enzyme activity, inhibitor | Ki | 4.2 µM
Brc1ccc(Cn2nnc3c(Sc4nnnn4-c4ccccc4)nc(SCc4ccccc4)nc32)cc1 | enzyme activity, inhibitor, fluorescence | IC50 | 0.41 µM
NCCCC[N+](CCCN)(CCCN)CCCN | enzyme activity, inhibitor, absorbance | Ki | 29 µM
C#CCSc1nc(Nc2ccc(Cl)cc2)c(C#N)c(-c2ccccc2)n1 | enzyme activity, inhibitor, fluorescence | IC50 | > 64 µM
C[C@@H]1O[C@@H](OC[C@H]2O[C@@H](OCCc3ccc(O)c(O)c3)[C@H](O)[C@@H](O)[C@@H]2OC(=O)/C=C/c2ccc(O)c(O)c2)[C@H](O)[C@H](O)[C@H]1O | binding, SPR | Kd | 5.2 µM
C/C(=N\NC(=O)c1cccc(S(=O)(=O)N2CCOCC2)c1)c1cc(Cl)ccc1O | cell-free assay, inhibitor, TR-FRET | IC50 | 2.5 µM

Excerpt of the above:
SMILES | test | measurement | result
C[C@@H]1O[C@@H](OC[C@H]2O[C@@H](OCCc3ccc(O)c(O)c3)[C@H](O)[C@@H](O)[C@@H]2OC(=O)/C=C/c2ccc(O)c(O)c2)[C@H](O)[C@H](O)[C@H]1O | binding, SPR | Kd | 5.2 µM
